Published values pooled from the literature.
Each numbered part is a random draw from the data of one study; scales do not carry over between parts.

Block 1
Target: Histone acetyltransferase KAT6A, both winged helices, GST fusion (KAT6A, Homo sapiens, UniProt Q92794, residues 1-181)
Method: protein binding microarray
Molecule type: double-stranded DNA, one strand shown
Sample: in vitro
Tested at: not given
Setting: 8-mer, flanks averaged, mean of 2 arrays, mostly near background
Relative to: not given
Direction: higher = stronger binding
Residues (chain): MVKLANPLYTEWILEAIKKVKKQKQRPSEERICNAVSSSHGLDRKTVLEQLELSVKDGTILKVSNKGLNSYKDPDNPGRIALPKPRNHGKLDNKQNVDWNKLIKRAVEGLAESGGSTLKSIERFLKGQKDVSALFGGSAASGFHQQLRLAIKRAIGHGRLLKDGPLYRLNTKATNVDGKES
The E-score of `CTTACGTA` is reported as -0.106.
For `CAATTTTC`, the E-score was -0.182.
For `CAAAAACG`, the E-score was 0.0581.
`ATATTTCG` has an E-score of -0.0464.
`CAGGGTAC` gave an E-score of -0.0572.
The E-score of `GGTGGTGA` is reported as 0.01.
`GATAACTA` has an E-score of -0.179.
With `AGGAGTTC` the E-score was -0.227.

Block 2
Target: Replicase polyprotein 1ab, main protease (rep, Severe acute respiratory syndrome coronavirus 2, UniProt P0DTD1)
Observed: enzyme activity
Mode: inhibitor
Setting: without DTT
For O=C(/C=C/c1ccc(O)c(O)c1)O[C@H](Cc1ccc(O)c(O)c1)C(=O)O, the IC50 was 3.9 µM.
For Cc1ccc(S(=O)(=O)/C=C/C#N)cc1, the IC50 was 0.8 µM.
For COC(=O)C1=C(C)NC(C)=C(C(=O)OC)C1c1ccccc1[N+](=O)[O-], the IC50 was > 20 µM.
The IC50 of C/N=c1/nc(-c2ccccc2)n(-c2ccccc2)s1 is reported as 1 µM.
CC(=O)[O][Pt]([NH2])([Cl])([Cl])([NH]C1CCCCC1)[O]C(C)=O has an IC50 of 5.7 µM.

Block 3
Target: Interferon regulatory factor 5, full length, phosphomimetic (IRF5, Homo sapiens, UniProt Q13568-2, residues 1-514, S451D/S453D/S456D/S462D)
Method: protein-binding microarray
Molecule type: double-stranded DNA, one strand shown
Sample: in vitro
Tested at: 940 nM top
Setting: 60-bp whole probe
Together with: salmon DNA 0.4 mg/ml
Relative to: random background probes
Direction: higher = stronger binding
Shared flanks, not repeated: GCCTAGCAC … GTCTTGATTCGCTTGACGCTGCTG
For `TTAGAACTGGGGATTCGATTAGTGCTA`, “fitted relative affinity” read 0.278 z-score.
`GACGGTTTCCTTTCCCGGACGTGCTAG` — result for “fitted relative affinity”: 2.78 z-score.
`GTAGAACTGGGGACTGGATTAGTGCTA` — result for “fitted relative affinity”: -0.199 z-score.
`GAAGAACTGAGTTTCGAGACGTGCTAG` — result for “fitted relative affinity”: 3.28 z-score.
`GCTATTTTTAGGATGGGCTAGTGCTAG` — result for “fitted relative affinity”: -0.0844 z-score.
`TACGGTTTCCTTCTCCTGACGTGCTAG`: “fitted relative affinity” 1.53 z-score.
`CTGTACATCTATGTAGAAAGGTGCTAG`: “fitted relative affinity” 0.00556 z-score.
`GACGGTTTCCTACTGCTGAAGTGCTAG` — result for “fitted relative affinity”: 0.906 z-score.

Block 4
Target: Replicase polyprotein 1ab, polymerase (rep, Severe acute respiratory syndrome coronavirus 2, UniProt P0DTD1)
Observed: enzyme activity
Mode: inhibitor
Tested at: 20 µM
CC(C)NCC(O)c1cc(O)cc(O)c1 (stereo not drawn) has an inhibition of 23.5%.
With CSC[C@H](N)C(=O)O the inhibition was 4.02%.
O=C(O)c1cn(-c2ccc(F)cc2)c2cc(N3CCNCC3)c(F)cc2c1=O gave an inhibition of 14.8%.
For OC(CCN1CCCCC1)(c1ccccc1)c1ccccc1, the inhibition was 3.89%.
With Clc1ccc(C(Cn2ccnc2)OCc2c(Cl)cccc2Cl)c(Cl)c1 (stereo not drawn) the inhibition was -21.5%.
c1cnc(N2CCN(Cc3ccc4c(c3)OCO4)CC2)nc1 has an inhibition of -1.53%.
CC[C@H]1[C@@H]2C[C@H]3[C@@H]4N(C)c5ccccc5[C@]45C[C@@H]([C@H]2[C@H]5O)N3[C@@H]1O gave an inhibition of -0.28%.
With CO/N=C1/C[C@@H](C(=O)NC[C@@H](O)c2ccccc2)N(C(=O)c2ccc(-c3ccccc3C)cc2)C1 the inhibition was 0.64%.
The inhibition of CC(=O)c1cnc2ccc(-c3cc(Cl)c(O)c(Cl)c3)nc2c1N[C@H]1CC[C@H](CN(C)C)CC1 is reported as 25.4%.
Nc1nc(OCc2ccccc2)c2nc[nH]c2n1 has an inhibition of 1.64%.
For COc1cc2c(NC3CCN(C4CCCCC4)CC3)nc(N3CCCN(C(C)C)CC3)nc2cc1OCCCN1CCCCC1, the inhibition was 9.53%.
For Cc1cc(C)nc(SCC(=O)Nc2ncc(Cc3cccc4ccccc34)s2)n1, the inhibition was -5.84%.
With NCCCC[C@H](NC(=O)[C@@H]1CCCN1C(=O)[C@@H]1CSSC[C@H](N)C(=O)N[C@@H](Cc2ccc(O)cc2)C(=O)N[C@@H](Cc2ccccc2)C(=O)N[C@@H](CCC(N)=O)C(=O)N[C@@H](CC(N)=O)C(=O)N1)C(=O)NCC(N)=O the inhibition was 4.29%.
O=C1c2c(O)ccc(O)c2C(=O)c2c(NCCNCCO)ccc(NCCNCCO)c21 has an inhibition of 104%.
For CC1(c2ccccc2)OC(C(=O)O)=CC1=O (stereo not drawn), the inhibition was 3.83%.
For O=C(O)c1ccccc1Nc1cccc(C(F)(F)F)c1, the inhibition was 31.4%.
With O=[N+]([O-])c1cn2c(n1)OC[C@@H](OCc1ccc(-c3ccc(OC(F)(F)F)cc3)nc1)C2 the inhibition was 2.36%.
For CC(=O)Oc1c(C)cccc1C(=O)O, the inhibition was -1.01%.
O=C(NO)c1ccc(O)c(O)c1 has an inhibition of -4.36%.
With C[C@@H](NC(=O)c1ncnc(N)c1Cl)c1ncc(C(=O)Nc2cc(C(F)(F)F)c(Cl)cn2)s1 the inhibition was 3.47%.
The inhibition of CNC(=O)c1nn(C)c2c1C(C)(C)Cc1cnc(Nc3ccc(N4CCN(C)CC4)cc3)nc1-2 is reported as -2.68%.
CC=CC1=C(C(=O)O)N2C(=O)[C@@H](NC(=O)[C@H](N)c3ccc(O)cc3)[C@H]2SC1 has an inhibition of 1.52%.

Other studies, line by line
For NCCCCCC(=O)O, the GFP-positive cells was 76.2% (HEK-293T; pseudovirus infection, FDA-approved drug library screen; VSV pseudotyped with SARS-CoV-2 spike; 10 µM, 16 h; relative to: vehicle-treated).
With COc1cc2nccc(Oc3ccc(NC(=O)C4(C(=O)Nc5ccc(F)cc5)CC4)cc3)c2cc1OC the cell number was 86.3% (HEK-293T-ACE2; concentration not given; relative to: vehicle).

Some of these lines once more (block 1):
For `CAAAAACG`, the E-score was 0.0581.
`ATATTTCG` has an E-score of -0.0464.
`CAGGGTAC` gave an E-score of -0.0572.
The E-score of `GGTGGTGA` is reported as 0.01.
`GATAACTA` has an E-score of -0.179.
With `AGGAGTTC` the E-score was -0.227.
